Measured values from different studies.
A part holds a random share of what one study measured. Substitutions count along the parent as printed.

Study 1
Target: CCND1, cyclin fold, Cln2 fusion (human)
Method: yeast growth competition, sequencing
Sample: yeast
Setting: weak parent motif
Reference: not given
Reading: higher = stronger binding
Measurement: normalised enrichment score
Starting sequence: RB1 docking peptide (human); PKPLKKLRFDIEG
Change = PKPLKKLRFDAEG [I11A]; value = 0.401
Change = PKPLKKLRQDIEG [F9Q]; value = 0.311
Change = PKPLKKLRFDFEG [I11F]; value = 0.247
Change = PKPLKKLREDIEG [F9E]; value = -0.526
Change = PKPLYKLRFDIEG [K5Y]; value = 0.694
Change = PKMLKKLRFDIEG [P3M]; value = 0.151
Change = PKFLKKLRFDIEG [P3F]; value = -0.0951
Change = PKPLKKLRFDWEG [I11W]; value = -0.131
Change = PKPLKKQRFDIEG [L7Q]; value = -0.791
Change = YKPLKKLRFDIEG [P1Y]; value = -0.199
Change = PKPLKKLRFWIEG [D10W]; value = 0.484

Study 2
Target: Max-binding protein MNT, bHLH-zipper, MAX partner unstated (MNT, Homo sapiens, UniProt Q99583, residues 220-300)
Method: protein-binding microarray
Molecule type: double-stranded DNA, one strand shown
Sample: in vitro
Concentration: not given
Setting: k-mer, scored over probes, only values ≥0.25
Reading: higher = stronger binding
Measurement: E-score
Residues (chain): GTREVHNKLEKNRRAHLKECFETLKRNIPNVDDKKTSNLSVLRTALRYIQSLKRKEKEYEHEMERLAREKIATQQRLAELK
Strand = CACGCTAA; value = 0.305
Strand = CATGCGCC; value = 0.428
Strand = AACAGGTG; value = 0.317
Strand = AAAGCGTG; value = 0.404
Strand = GTCCACGA; value = 0.271
Strand = CGTGGCGA; value = 0.307
Strand = ATGCGCTA; value = 0.265
Strand = ACGTGAAA; value = 0.352
Strand = ATGTGGAC; value = 0.258
Strand = ACGAGGAC; value = 0.385
Strand = GCGTGTAC; value = 0.414
Strand = GCATGGCA; value = 0.393
Strand = ACGTGCAG; value = 0.45
Strand = CGCACCAC; value = 0.314
Strand = CAGCACGC; value = 0.391
Strand = CGTGGCTC; value = 0.382

Study 3
Target: Histone acetyltransferase KAT6A, winged helix 2, GST fusion (KAT6A, Homo sapiens, UniProt Q92794, residues 85-181)
Method: protein binding microarray
Molecule type: double-stranded DNA, one strand shown
Sample: in vitro
Concentration: not given
Setting: 8-mer, flanks averaged, mean of 2 arrays, mostly near background
Reference: not given
Reading: higher = stronger binding
Measurement: E-score
Residues (chain): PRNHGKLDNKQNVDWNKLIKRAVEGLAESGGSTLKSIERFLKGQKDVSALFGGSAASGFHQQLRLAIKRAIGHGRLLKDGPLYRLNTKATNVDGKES
Strand = ATGAGTTA; value = -0.218
Strand = GGGGTCCA; value = -0.0526
Strand = GCTATCGA; value = -0.00149
Strand = AACGGTCA; value = -0.016
Strand = GAGCCGAA; value = 0.152
Strand = CGGCGAGA; value = 0.135
Strand = ATAATCCC; value = -0.0903
Strand = AAGGTGCG; value = -0.038
Strand = AGGTCGGG; value = 0.0862
Strand = AAATGCTT; value = 0.0563
Strand = ACTCCTAC; value = -0.18
Strand = ATCGTGTA; value = -0.0468
Strand = GGTCCCCA; value = 0.0404

Single results of other studies
Substance = PhoQ, residues 284 288 289 292 302 303 SLCLSL; target = PhoP, residues 12 14 15 18 19 QYFSL (Escherichia coli, UniProt P23836); test = Sort-seq, measured: YFP reporter; system = E. coli; setting = PhoQ-PhoP variant library, together with: 10 µM Mg2+; how to read = reference: high Mg2+ state, higher = stronger signaling; measurement = fold induction; value = 6.99

For quick reference, copied from above (study 3):
Strand = ATGAGTTA; value = -0.218
Strand = GGGGTCCA; value = -0.0526
Strand = GCTATCGA; value = -0.00149
Strand = AACGGTCA; value = -0.016
Strand = GAGCCGAA; value = 0.152
Strand = CGGCGAGA; value = 0.135
Strand = ATAATCCC; value = -0.0903
